Published values from different studies.
Parts stem from different laboratories: compare values within a part only. Several values in a cell are separate wells, animals, samples, runs or records.
Chain of UniProt Q16853 (whole entry, looked up): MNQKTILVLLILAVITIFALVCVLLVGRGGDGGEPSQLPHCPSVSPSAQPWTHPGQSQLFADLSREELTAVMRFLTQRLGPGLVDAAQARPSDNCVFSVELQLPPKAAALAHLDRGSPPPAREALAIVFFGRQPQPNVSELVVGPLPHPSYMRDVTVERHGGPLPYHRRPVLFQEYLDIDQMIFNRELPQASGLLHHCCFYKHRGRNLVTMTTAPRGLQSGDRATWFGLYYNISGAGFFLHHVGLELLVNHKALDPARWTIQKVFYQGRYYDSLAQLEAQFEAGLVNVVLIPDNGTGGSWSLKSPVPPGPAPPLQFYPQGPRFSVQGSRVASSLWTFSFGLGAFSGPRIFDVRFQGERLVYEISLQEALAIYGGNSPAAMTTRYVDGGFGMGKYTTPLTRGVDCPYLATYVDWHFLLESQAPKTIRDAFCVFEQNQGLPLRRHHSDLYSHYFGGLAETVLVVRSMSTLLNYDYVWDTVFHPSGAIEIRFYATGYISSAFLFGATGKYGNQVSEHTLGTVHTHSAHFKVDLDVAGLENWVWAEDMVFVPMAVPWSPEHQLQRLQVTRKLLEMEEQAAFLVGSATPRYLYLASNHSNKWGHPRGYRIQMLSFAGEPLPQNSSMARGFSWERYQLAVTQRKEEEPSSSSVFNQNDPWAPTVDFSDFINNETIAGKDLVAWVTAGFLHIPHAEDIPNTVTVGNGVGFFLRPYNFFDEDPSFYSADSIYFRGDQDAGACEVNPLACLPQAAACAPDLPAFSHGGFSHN

Set 1
Structure (SMILES): O=C(O)C1(O)Oc2cc(F)ccc2N(Cc2ccccc2)C1=O (stereo not drawn)
organism | test | system | setting | scale | inhibition
Arabidopsis thaliana | root length | Col-0 | 12.5 µg/mL, 7 days, seed germination, dark |  | 73.4%
Arabidopsis thaliana | root length | Col-0, seedlings | 100 µg/mL | reference: water control | 99.2%
Arabidopsis thaliana | hypocotyl length | Col-0, seedlings | 3.125 µg/mL |  | 21.9%
Arabidopsis thaliana | hypocotyl length | Col-0, seedlings | 6.25 µg/mL |  | 32.7%
Arabidopsis thaliana | hypocotyl length | Col-0 | 3.125 µg/mL, 7 days, seed germination, dark |  | 21.9%
Arabidopsis thaliana | hypocotyl length | Col-0 | 50.0 µg/mL, 7 days, seed germination, dark |  | 95.7%
Arabidopsis thaliana | root length | Col-0 | 50.0 µg/mL, 7 days, seed germination, dark |  | 99.2%
Arabidopsis thaliana | root length | Col-0, seedlings | 6.25 µg/mL |  | 60%
Triticum aestivum | fresh weight |  | soil surface spray, 150 g ai/ha, 21 days, pre-emergence crop safety |  | 21.3% and 20.5% and 19.7%
Arabidopsis thaliana | root length | Col-0, seedlings | 12.5 µg/mL | reference: water control | 73.4%
Arabidopsis thaliana | root length | Col-0, seedlings | 100 µg/mL |  | 99.2%
Abutilon theophrasti | fresh weight |  | 150 g ai/ha, pre-emergence treatment |  | 70.5% and 72.5% and 72.4%
Oryza sativa | fresh weight |  | soil surface spray, 150 g ai/ha, 21 days, pre-emergence crop safety |  | 0%
Setaria viridis | fresh weight |  | 150 g ai/ha, pre-emergence treatment |  | 5.4% and 4.8% and 4.2%
Arabidopsis thaliana | hypocotyl length | Col-0, seedlings | 25 µg/mL |  | 59.4%

Set 2
Structure (SMILES): N#C/C=C/CNCCCCN1c2ccccc2CCc2ccc(Cl)cc21.O=C(O)/C=C\C(=O)O
Cell line: NCI-H292
Method: CellTiter-Glo
Time: 72 h
setting | viability
0.05 µM | 105% and 107%
0.005 µM | 106% and 103% and 104%
5 µM | 62.4% and 53.6% and 54%
50 µM | 0.106% and -0.00477% and 0.0273%
0.5 µM | 105% and 104% and 102%

Set 3
Cell line: MDA-MB-231
Effect on: cell viability
Method: CellCounting-Lite
Concentration: 8.23 nM
Temperature: 37 °C
Direction: higher = more viable cells
SMILES | luminescence signal
Cn1cc(-n2cnc3c(NCc4nc5cc(Cl)c(Cl)cc5[nH]4)nc(N4CCNCC4)nc32)cn1 | 463000 a.u. and 444000 a.u. and 466000 a.u.
CC(=O)N1CCN(c2nc(NCc3nc4cc(Cl)c(Cl)cc4[nH]3)c3ncn(-c4cnn(C)c4)c3n2)CC1 | 589000 a.u. and 501000 a.u. and 503000 a.u.
CCn1cnc2c(NCc3nc4cc(Cl)c(Cl)cc4[nH]3)nc(N3CCn4ncnc4C3)nc21 | 473000 a.u. and 371000 a.u. and 490000 a.u.
CCn1cnc2c(NCc3nc4cc(F)c(F)cc4[nH]3)nc(N3CCn4ncnc4C3)nc21 | 491000 a.u. and 517000 a.u. and 489000 a.u.
CCn1cnc2c(NCc3nc4cc(Cl)c(Cl)cc4[nH]3)nc(N3CCN(C(=O)c4cccnc4)CC3)nc21 | 279000 a.u. and 288000 a.u. and 326000 a.u.
CCn1cnc2c(NCc3nc4cc(Cl)c(Cl)cc4[nH]3)nc(N3CCN(Cc4ccncc4)CC3)nc21 | 376000 a.u. and 400000 a.u. and 446000 a.u.
CCCCOc1nc(NCc2nc3cc(Cl)c(Cl)cc3[nH]2)c2ncn(CC)c2n1 | 627000 a.u. and 710000 a.u. and 490000 a.u.
CCn1cnc2c(NCc3nc4cc(Cl)c(Cl)cc4[nH]3)nc(N3CCN(C(=O)c4ccncc4)CC3)nc21 | 427000 a.u. and 393000 a.u. and 325000 a.u.
CCn1cnc2c(NCc3nc4cc(Cl)c(Cl)cc4[nH]3)nc(N3CCN(C(=O)CNC(C)=O)CC3)nc21 | 512000 a.u. and 473000 a.u. and 499000 a.u.

Set 4
Compound: C=CC(=O)N1CCN(c2nc(OC[C@@H]3CCCN3C)nc3c2CCN(c2cccc4cccc(C)c24)C3)C[C@@H]1CC#N
Effect on: binding
Action: competitor
Method: NanoBRET
Cells: HEK293
HRAS: GTPase HRas (HRAS, Homo sapiens, UniProt P01112)
target | setting | normalized BRET
GTPase KRas (KRAS, Homo sapiens, UniProt P01116, G12D) | 39.1 nM | 106%
GTPase KRas (KRAS, Homo sapiens, UniProt P01116, Q61R) | 6.67 µM | 125% and 90.8% and 130%
HRAS | 27.4 nM | 101% and 85.5%
HRAS | 39.1 nM | 117%
GTPase KRas (KRAS, Homo sapiens, UniProt P01116, Q61H) | 27.4 nM | 96.5% and 93% and 88.9%
GTPase KRas (KRAS, Homo sapiens, UniProt P01116, G13D) | 20 µM | 17% and 11.1% and 8.78%

Set 5
Compound: O=c1[nH]c(=S)n(C[C@H]2CCCO2)c2nc[nH]c12
Effect on: enzyme activity
MPO: Myeloperoxidase (MPO, Homo sapiens, UniProt P05164)
Chain of UniProt P05164 (whole entry, looked up): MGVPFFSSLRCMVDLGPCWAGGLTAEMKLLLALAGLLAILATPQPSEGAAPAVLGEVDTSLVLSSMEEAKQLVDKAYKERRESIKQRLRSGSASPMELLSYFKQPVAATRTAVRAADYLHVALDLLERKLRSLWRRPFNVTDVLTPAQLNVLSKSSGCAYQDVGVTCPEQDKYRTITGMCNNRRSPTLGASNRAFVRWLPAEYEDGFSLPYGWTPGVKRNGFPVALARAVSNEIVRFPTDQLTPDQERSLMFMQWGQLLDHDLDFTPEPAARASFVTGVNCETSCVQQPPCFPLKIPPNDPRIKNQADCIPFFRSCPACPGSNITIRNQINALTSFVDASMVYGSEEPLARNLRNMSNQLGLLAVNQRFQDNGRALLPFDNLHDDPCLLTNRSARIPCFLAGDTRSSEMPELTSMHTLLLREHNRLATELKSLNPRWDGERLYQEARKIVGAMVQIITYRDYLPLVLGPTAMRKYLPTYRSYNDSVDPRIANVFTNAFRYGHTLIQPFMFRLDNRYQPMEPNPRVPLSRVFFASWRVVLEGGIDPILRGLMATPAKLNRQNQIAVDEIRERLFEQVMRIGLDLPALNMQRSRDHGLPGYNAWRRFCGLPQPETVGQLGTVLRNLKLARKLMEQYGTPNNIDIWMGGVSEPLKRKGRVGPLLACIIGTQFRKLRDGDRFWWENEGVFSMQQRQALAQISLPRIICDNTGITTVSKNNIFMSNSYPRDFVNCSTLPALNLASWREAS
target | test | setting | inhibition
MPO | inhibitor, fluorescence | 0.1235 µM | 52.5% and 81.7% and 67.8% and 71.4% and 59.5% and 69.9%
AOC3 (Homo sapiens, UniProt Q16853) | Amplex Red H2O2 production | 0.1235 µM | 8.67%
MPO |  | 15 µM | 99.9% and 100% and 99.6%

Set 6
Cell line: Gaucher fibroblasts L444P/L444P
Method: 4-MUG hydrolysis, cell lysate
Concentration: 0.1 µM
Reference: DMSO
SMILES | GCase activity
CCOc1ccc2nc(Sc3nc(NCCN4CCOCC4)nc(Nc4ccc(I)cc4)n3)sc2c1 | 90.9% and 87.4% and 105% and 95.6%
Ic1ccc(Nc2nc(NCCN3CCOCC3)nc(NC3CCCCC3)n2)cc1 | 102% and 94.2% and 96.7% and 108%
Ic1ccc(Nc2nc(N3CCOCC3)nc(N3CCOCC3)n2)cc1 | 118% and 109% and 121% and 113% and 110%
Ic1ccc(Nc2nc(NCCN3CCOCC3)nc(N3CCSCC3)n2)cc1 | 93.1% and 112% and 106% and 92% and 118%
Fc1ccc(Nc2nc(NCCN3CCOCC3)nc(N3CCOCC3)n2)cc1 | 96% and 93.6% and 105% and 95.3% and 104% and 99.7%
c1ccc(Nc2nc(NCCN3CCOCC3)nc(N3CCOCC3)n2)cc1 | 92.8% and 99.9% and 101% and 103% and 102% and 94.7%
Ic1ccc(Nc2nc(NCCN3CCOCC3)nc(N3CCCC3)n2)cc1 | 98.7% and 91.3% and 107% and 102% and 98.6%
CCOc1ccc2nc(Sc3nc(Nc4ccc(OC)cc4)nc(N4CCOCC4)n3)sc2c1 | 114% and 115% and 104% and 109%

Set 7
SMILES: CCN1/C(=C/C=C2\CCCC(/C=C/C3=[N+](CC)c4ccccc4C3(C)C)=C2NCCCCCCCCN2CCC(Nc3nc4ccccc4n3Cc3ccc(F)cc3)CC2)C(C)(C)c2ccccc21
Cell line: U-87 MG
Concentration: concentration not given
Reference: DMSO
test | log2 fold change
measured: ZNF473 mRNA | 0.965
measured: ETNK1 mRNA | 0.814
measured: RNF11 mRNA | 0.977
measured: GPR183 mRNA | -2.9
measured: C8orf88 mRNA | 1.28
measured: FNIP2 mRNA | 1.02
measured: SEMA3A mRNA | 1.75
measured: E2F8 mRNA | -2.47
measured: CCDC121 mRNA | -1.4
measured: MIS18A mRNA | -1.08
measured: RAB7B mRNA | -3.14
measured: BCL2L2 mRNA | 0.822
measured: SEMA6D mRNA | 2.32
measured: DAW1 mRNA | -1.97
measured: ZNF550 mRNA | 1.12
measured: KIAA1522 mRNA | -0.934

Set 8
Structure (SMILES): COCC1CC2C(CCC3(C)C(O)CCC23)c2ccc(O)cc21 (stereo not drawn)
Method: DNA microarray
Reference: untreated cells
cell line | test | setting | mRNA level ratio
A549 | measured: CDCA8 | 100 µM | 0.511
A549 | measured: MCM7 | 100 µM | 0.602
PANC-1 | measured: CCL22 | concentration not given, higher dose arm | 1
A549 | measured: GDF15 | 100 µM | 6.7
SK-OV-3 | measured: AURKA | concentration not given, lower dose arm | 0.872
PANC-1 | measured: GAPDH | concentration not given, lower dose arm | 1.42 and 1.3 and 1.36 and 1.37 and 1.35
PANC-1 | measured: KIF20A | concentration not given, higher dose arm | 0.28 and 0.276 and 0.279 and 0.274
SK-OV-3 | measured: CDC25B | concentration not given, lower dose arm | 1.13
A549 | measured: ORC1L | 100 µM | 0.485
A549 | measured: MCM6 | 50 µM | 0.865
A549 | measured: GINS1 | 50 µM | 0.735
PANC-1 | measured: ADAMTS8 | concentration not given, lower dose arm | 1

Other studies, line by line
PKMYT1: Membrane-associated tyrosine- and threonine-specific cdc2-inhibitory kinase (PKMYT1, Homo sapiens, UniProt Q99640)
Chain of UniProt Q99640 (whole entry, looked up): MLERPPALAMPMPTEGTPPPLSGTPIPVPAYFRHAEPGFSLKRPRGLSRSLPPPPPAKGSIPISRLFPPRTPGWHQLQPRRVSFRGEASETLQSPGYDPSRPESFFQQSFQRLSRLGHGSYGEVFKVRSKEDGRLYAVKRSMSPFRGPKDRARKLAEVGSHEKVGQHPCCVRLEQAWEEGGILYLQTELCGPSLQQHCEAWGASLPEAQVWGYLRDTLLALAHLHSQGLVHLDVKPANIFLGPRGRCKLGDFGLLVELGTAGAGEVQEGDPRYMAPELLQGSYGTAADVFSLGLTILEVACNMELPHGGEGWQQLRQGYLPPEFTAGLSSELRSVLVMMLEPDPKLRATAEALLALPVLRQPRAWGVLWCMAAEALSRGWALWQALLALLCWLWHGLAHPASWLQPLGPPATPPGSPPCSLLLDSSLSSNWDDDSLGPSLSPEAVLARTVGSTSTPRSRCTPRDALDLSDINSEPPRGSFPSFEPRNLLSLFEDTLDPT
Compound | target or system | test | setting | measurement | result
Cc1ccc(O)c(C)c1-c1cnc2[nH]c(-c3cnc(N4CCC(CCN5CCN(c6ccc(N7CCC(=O)NC7=O)cc6F)CC5)CC4)nc3)cc2c1C#N | PKMYT1 | binding, HTRF | 0.051 nM | inhibition | -5.49% and -3.21%
Cc1ccc(O)c(C)c1-c1cnc2[nH]c(-c3cnc(N4CCC5(CC4)CC(N4CCN(c6cc7c(cc6F)c(N6CCC(=O)NC6=O)nn7C)CC4)CO5)nc3)cc2c1C#N (racemic) | PKMYT1 | binding, HTRF | 333.33 nM | inhibition | 99.2%
Cc1ccc(O)c(C)c1-c1cnc2[nH]c(-c3cnc(N4CCC5(CC4)CC(N4CCN(c6ccc(N[C@H]7CCC(=O)NC7=O)cc6F)CC4)CO5)nc3)cc2c1C#N (single isomer, unassigned) | HCT-116 | MEK phosphorylation, paradoxical activator, measured: phospho-MEK |  | EC50 | 142 nM
Cc1ncc(-c2cc3c(C#N)c(-c4c(C)ccc(O)c4C)cnc3[nH]2)cn1 | PKMYT1 | cell-free assay, TR-FRET | 3.333 µM | inhibition | 102%
